Results gathered from unrelated publications.
Parts stem from different laboratories: compare values within a part only. Values joined by “and” are separate records of one study, mostly repeats; a detail may differ. Positions count from the first letter of the parent shown.

Study 1
Target: Sal-like protein 4, full length isoform A (SALL4, Homo sapiens, UniProt Q9UJQ4, residues 1-1053)
Sequence of UniProt Q9UJQ4 (whole entry, looked up): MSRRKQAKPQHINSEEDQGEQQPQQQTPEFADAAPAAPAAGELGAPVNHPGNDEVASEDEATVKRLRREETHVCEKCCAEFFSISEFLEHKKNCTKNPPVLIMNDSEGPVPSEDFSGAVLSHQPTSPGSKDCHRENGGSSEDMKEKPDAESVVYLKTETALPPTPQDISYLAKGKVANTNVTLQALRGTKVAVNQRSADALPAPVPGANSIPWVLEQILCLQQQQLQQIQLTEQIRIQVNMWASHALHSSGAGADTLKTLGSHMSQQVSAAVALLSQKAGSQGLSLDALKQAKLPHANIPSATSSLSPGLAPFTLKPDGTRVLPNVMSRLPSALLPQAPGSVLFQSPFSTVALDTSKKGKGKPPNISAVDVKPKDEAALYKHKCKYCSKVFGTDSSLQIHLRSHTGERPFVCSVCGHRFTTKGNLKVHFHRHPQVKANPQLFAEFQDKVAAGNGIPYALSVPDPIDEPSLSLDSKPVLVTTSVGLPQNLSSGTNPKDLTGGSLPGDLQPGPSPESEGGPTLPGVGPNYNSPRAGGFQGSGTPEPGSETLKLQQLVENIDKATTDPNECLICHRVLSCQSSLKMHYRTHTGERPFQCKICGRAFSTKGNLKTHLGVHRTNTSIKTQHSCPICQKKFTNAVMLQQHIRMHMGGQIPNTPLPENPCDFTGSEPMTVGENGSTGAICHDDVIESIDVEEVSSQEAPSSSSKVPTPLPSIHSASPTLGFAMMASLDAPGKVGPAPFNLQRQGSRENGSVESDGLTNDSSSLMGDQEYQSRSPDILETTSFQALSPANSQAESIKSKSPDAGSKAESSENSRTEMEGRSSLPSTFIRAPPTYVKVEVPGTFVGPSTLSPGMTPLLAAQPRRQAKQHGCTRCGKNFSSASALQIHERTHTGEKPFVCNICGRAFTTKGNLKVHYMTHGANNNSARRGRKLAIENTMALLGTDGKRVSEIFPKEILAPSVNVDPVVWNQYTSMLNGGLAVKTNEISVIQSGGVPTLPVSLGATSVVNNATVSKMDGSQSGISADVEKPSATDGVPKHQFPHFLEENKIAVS
Technique: universal PBM
Form: double-stranded DNA, one strand shown
Sample: in vitro
Concentration: 600 nM
Setting: 8-mer, flanks averaged, mean of replicates
Reading: higher = stronger binding
The E-score of `GATCAAGC` is reported as -0.0869.
`CGGGAGGA` has an E-score of -0.257.
With `CGTCTTGA` the E-score was 0.031.
The E-score of `AAGTGCAT` is reported as 0.164.
With `ACTTCCCA` the E-score was -0.0127.
`GGCAGCCC` gave an E-score of -0.465.
`CGATTACC` has an E-score of -0.155.
`GCTGGATA` has an E-score of 0.0981.
With `CCTGCCCG` the E-score was -0.29.
For `GAACGACC`, the E-score was -0.253.
The E-score of `AAAATACG` is reported as 0.237.
`ATACTCCA` gave an E-score of 0.135.
With `AGAAGAGG` the E-score was -0.0454.
For `ACTCACAT`, the E-score was 0.119.
With `AGAGTGAA` the E-score was 0.149.

Study 2
Target: CCNA1, cyclin fold, Cln2 fusion (human)
Technique: yeast growth competition, sequencing
Sample: yeast
Setting: weak parent motif
Baseline: not given
Reading: higher = stronger binding
Parent: INSM1 docking peptide (human); PKAIRKLHFEDEV
For `D11R`, “normalised enrichment score” read 0.386.
For `E12I`, “normalised enrichment score” read 0.529.
`L7A`: “normalised enrichment score” -0.0327.
`K2P` — result for “normalised enrichment score”: 0.0488.
`A3F` — result for “normalised enrichment score”: 0.32.
`E10Y`: “normalised enrichment score” 0.29.

Study 3
Target: RNA binding protein fox-1 homolog 2, RRM domain, GST-SBP tag (RBFOX2, Homo sapiens, UniProt O43251-10, residues 100-194)
Technique: RNA Bind-n-Seq
Form: RNA
Sample: in vitro
Concentration: 365 nM
Setting: natural RNA segment, single round, ends assumed
Baseline: no-protein control
Reading: higher = stronger binding
Under “RBNS enrichment (R)”, `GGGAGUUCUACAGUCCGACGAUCGGGCCACGGGCGCGAGACUGCCCGACGCCACGGCCCCGCGCCCCUCCCGGUCCUCCACGCGGACCACUAUGCUUCCCCACCGCAGCAGGCGACCGCGGCGCAGCUCCCACUGGAAUUCUCGGGUGCCAA` is recorded as 0.389.
`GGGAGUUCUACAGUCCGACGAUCUCCCCCAAGACGAAUAUCCAGAAAUCAAUUUUGUGGGGCUCCUAAUUGGACCCAGGGGGAACACCCUGAAGAACAUUGAGAAGGAAUGCAACGCCAAGAUCAUGAUUCGGUGGAAUUCUCGGGUGCCAA`: “RBNS enrichment (R)” 0.602.
For `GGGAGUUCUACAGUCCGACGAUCUGUUGAAGGGCUUCAGCCACAUUCAAAAUAAGUAGGUGGUUUAUCUUUGACAUCUUUUAAAGAGUCUGGAUAAAUCUGACUCGUUGCUCAAUAGGGUUUAUUUGGCAGUGUGGAAUUCUCGGGUGCCAA`, “RBNS enrichment (R)” read 0.361.
`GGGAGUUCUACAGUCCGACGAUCUGGAUAGAUGAAUACUGGGAUUGGCUCUGGAGCAUGUGUUUUGAGUUGAACCUUGCAGUCCUUUCUCUACGCCCGUGGAUUUUGUGGAAACACUUUGCAAUCUCUUUGUCUGGAAUUCUCGGGUGCCAA` — result for “RBNS enrichment (R)”: 5.47.
Under “RBNS enrichment (R)”, `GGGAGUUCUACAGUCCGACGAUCAUGAAGUUGUGUUGCCUCAGGCUGUUUAGGGACCAUUGCCUGUCUUGGUCACAUGAGUCUGUCUCCUUACUUUAGUCCCUGGGCAAUCCUUGCUUAAUGCUUUUGUUGACUGGAAUUCUCGGGUGCCAA` is recorded as 0.601.
Under “RBNS enrichment (R)”, `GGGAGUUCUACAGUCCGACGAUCGACGGACCCGCUGUGCCUUCUACCAUCGUUCCACCAUUGAUGUACAUACUCAUGUUUUACAUCUUUUCUUUCUGCCGCUCGGCUCCGGCCAUUUUGUUUUAUACAAAAAUUGGAAUUCUCGGGUGCCAA` is recorded as 0.658.
For `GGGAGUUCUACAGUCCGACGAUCUGAGUUGCCUGUUUACUGUUGAUGCAAUUGUUUUGAUUUUUAACUAAAUGCAAAUACCUUCCUGCCUCAUCCCAGAAAAUGAAAAAUAAUGCUUUUGACACUGUUUCUAGUGGAAUUCUCGGGUGCCAA`, “RBNS enrichment (R)” read 0.593.
`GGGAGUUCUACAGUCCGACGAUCUAAAUGAACUUUGAUCUCUGUUUUAAAGAUUAUUAAAAAACAUUGUGUAUCUAUACAUAUGGCUCUUGAGGACUUAGCUUUCACUACACUACAGGAUAUGAUCUCCAUGUUGGAAUUCUCGGGUGCCAA`: “RBNS enrichment (R)” 0.405.
For `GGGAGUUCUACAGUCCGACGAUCCAUUUAAGGACUCUAAGCCAGAAUGGAAAAUUCACCAGGACUCCAUUCUUAAGCCUAUGCGAGUCCCCUAGAGAGAGGCAUUGUACUGAUAUAUAAAUAUUAUAUAAUAUUGGAAUUCUCGGGUGCCAA`, “RBNS enrichment (R)” read 0.682.
`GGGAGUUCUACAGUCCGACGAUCGGGCACGCCUGCCCAGCCUCGCAUGCCAGAGCCUGGGGCAUCCCAGAGCCCAGGGCAUCCCAUGGGGGUGCUGCAGCCAGGAGGAGAGGAAAGGACAUGGGUAGCAAUUCUGGAAUUCUCGGGUGCCAA` — result for “RBNS enrichment (R)”: 1.85.
For `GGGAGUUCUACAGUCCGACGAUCCAUUCCCGCCACUGUGUCUCUGUGUAUUGAAAGCCUCUCCUGUGACCACAGCCUGUGUUGACAGAUGUCUGUCUGUCCCUGUGCAAUCCAGUCUGGGCCUCAGACUCAGAUGGAAUUCUCGGGUGCCAA`, “RBNS enrichment (R)” read 0.433.
Under “RBNS enrichment (R)”, `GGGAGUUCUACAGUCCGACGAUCAAUAUCUGCUUUAAUAUAGCUAUCAUUUCUUUUCCAAAAUUACUUCUCUCUAUCUGGAAUUUAAUUAAUCGAAAUGAAUUUAUCUGAAUAUAGGAAGCAUAUGCCUACUUUGGAAUUCUCGGGUGCCAA` is recorded as 0.427.

Mixed results
With `PhoQ, residues 284 288 289 292 302 303 TLASMF` the fold induction was 9.45 and 4.19 (PhoP, residues 12 14 15 18 19 LWHSL (Escherichia coli, UniProt P23836); Sort-seq, refers to: YFP reporter; E. coli; PhoQ-PhoP variant library, with: 10 µM Mg2+; baseline: high Mg2+ state, higher = stronger signaling).

Some of these lines once more (study 2):
For `D11R`, “normalised enrichment score” read 0.386.
For `E12I`, “normalised enrichment score” read 0.529.
`L7A`: “normalised enrichment score” -0.0327.
`K2P` — result for “normalised enrichment score”: 0.0488.
`A3F` — result for “normalised enrichment score”: 0.32.
